Measurements collected from several papers.
Parts stem from different laboratories: compare values within a part only.

Series 1
Target: UBE2D1 UBC core domain (UniProt P51668)
Technique: yeast two-hybrid
Sample: yeast
Notes: mostly zero background
Reference: not given
Reading: higher = stronger interaction
B1: TRIM35 RING domain (UniProt Q9UPQ4); chain PSRSFKEELLCAVCYDPFRDAVTLRCGHNFCRGCVSRCWEVQVSPTCPVCKDRASPADLRT
B2: RNF5 RING domain (UniProt Q99942); chain ERGGAGATFECNICLETAREAVVSVCGHLYCWPCLHQWLETRPERQECPVCKAGISREKVVP
B3: MSL2 RING domain (UniProt Q9HCI7); chain LLPYFRQSLSCCVCGHLLQDPIAPTNSTCQHYVCKTCKGKKMMMKPSCSWCKDYEQFEENKQ
B4: TRIM10 RING domain (UniProt Q9UDY6); chain SVTSLADEVNCPICQGTLREPVTIDCGHNFCRACLTRYCEIPGPDLEESPTCPLCKEPFRPGSFRP
B5: ANKIB1 RING domain (UniProt Q9P2G1); chain LSPGDLDTSLCDICMCSISVFEDPVDMPCGHDFCRGCWESFLNLKIQEGEAHNIFCPAYDCFQLVPVDIIE
B6: UBE4A RING domain (UniProt Q14139); chain LQQQEEETYADACDEFLDPIMSTLMCDPVVLPSSRVTVDRSTIARHLLSDQTDPFNRSPLTMDQIRPNTELKEKIQRWLAERKQQKEQLE
B7: PEX2 RING domain (UniProt P28328); chain DNTLATSGKECALCGEWPTMPHTIGCEHIFCYFCAKSSFLFDVYFTCPKCGTEVHSLQPLK
B8: RNF175 RING domain (UniProt Q8N4F7); chain LPTRSLSDNICAVCGQKIIVELDEEGLIENTYQLSCNHVFHEFCIRGWCIVGKKQTCPYCKEKVDLKRMIS
B9: TRIM15 RING domain (UniProt Q9C019); chain SLKVVHELPACTLCAGPLEDAVTIPCGHTFCRLCLPALSQMGAQSSGKILLCPLCQEEEQAETPMA
B10: RNF150 RING domain (UniProt Q9ULK6); chain DKETESDFDNCAVCIEGYKPNDVVRILPCRHLFHKSCVDPWLLDHRTCPMCKMNILKALGIP
B11: RNF32 RING domain (UniProt Q9H0A6); chain SLLQGDSVQPCPICKEEFELRPQVLLSCSHVFHKACLQAFEKFTNKKTCPLCRKNQYQTRVIH
B12: RNF14 RING domain (UniProt Q9UBS8); chain IKCFNSKLFLCSICFCEKLGSECMYFLECRHVYCKACLKDYFEIQIRDGQVQCLNCPEPKCPSVATPGQVK
Residues (chain): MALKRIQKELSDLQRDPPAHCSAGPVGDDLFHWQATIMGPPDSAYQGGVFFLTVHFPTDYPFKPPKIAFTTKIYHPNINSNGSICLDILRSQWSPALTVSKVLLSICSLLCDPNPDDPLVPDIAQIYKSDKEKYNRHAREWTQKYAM
Molecule | lacZ reporter activity
QLQDEEDDSLCRICMDAVIDCVLLECGHMVTCTKCGKRMSECPICRQYVVRAVHVF (RNF34 RING domain (UniProt Q969K3)) | 0
LKQVSIRENCCSLCCDEVADTQLKPCGHSDLCMDCALQLETCPLCRKEIVSRIRQI (RSPRY1 RING domain (UniProt Q96DX4)) | 0
B1 (TRIM35 RING domain) | 0
B2 (RNF5 RING domain) | 0
B3 (MSL2 RING domain) | 0
B4 (TRIM10 RING domain) | 0
B5 (ANKIB1 RING domain) | 0
KIKDLNEHIVCCLCAGYFVDATTITECLHTFCKSCIVKYLQTSKYCPMCNIKIHETQPLL (PCGF1 RING domain (UniProt Q9BSM1)) | 0
B6 (UBE4A RING domain) | 2110
B7 (PEX2 RING domain) | 0
B8 (RNF175 RING domain) | 0
B9 (TRIM15 RING domain) | 0
B10 (RNF150 RING domain) | 11200
B11 (RNF32 RING domain) | 0
KRQCSDVDDICSICQAEFQKPILLICQHIFCEECMTLWFNREKTCPLCRTVISDHINKW (RNFT1 RING domain (UniProt Q5M7Z0)) | 0
B12 (RNF14 RING domain) | 0

Series 2
Target: PABPC1L2, full length, GST fusion (mouse, UniProt A0ABA7IW68)
Technique: RNAcompete
Form: RNA
Sample: in vitro
Concentration: 20 nM
Notes: 7-mer, probes averaged, single round
Reference: mean of 7-mers
Reading: higher = stronger binding
Construct (chain): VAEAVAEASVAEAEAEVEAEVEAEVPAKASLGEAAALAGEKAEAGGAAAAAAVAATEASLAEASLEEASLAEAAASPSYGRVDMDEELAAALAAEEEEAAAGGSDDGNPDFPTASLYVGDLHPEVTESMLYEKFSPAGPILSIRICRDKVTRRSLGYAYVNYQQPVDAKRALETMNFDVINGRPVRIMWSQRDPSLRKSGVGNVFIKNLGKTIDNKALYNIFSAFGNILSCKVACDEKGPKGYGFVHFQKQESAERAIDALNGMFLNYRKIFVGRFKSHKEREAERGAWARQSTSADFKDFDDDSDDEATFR
Oligonucleotide | 7-mer Z-score
GGGGCUG | 0.611
UCCAGUG | -0.188
CCAUUAU | -0.293
UCGAAGU | -0.28
UUUCCGG | -0.4
UCGACUA | -0.302
GUUGGAA | 0.254
UUUCACA | -0.291
UCCUUUG | -0.296
AAGUAUG | 0.225
GUAUUAG | -0.199
UCAUUGU | -0.396
AGGUUGG | 0.0823
AGGCGAU | 0.218
AUGUAAC | -0.0754
CGGAUUG | -0.137

Series 3
Target: Interferon regulatory factor 7, full length, phosphomimetic (IRF7, Homo sapiens, UniProt Q92985, residues 1-503, S101K/S471D/S472D/S475D/S476D/S477D/S483D/S484D/S487D)
Sequence of UniProt Q92985 (whole entry, unmodified, looked up): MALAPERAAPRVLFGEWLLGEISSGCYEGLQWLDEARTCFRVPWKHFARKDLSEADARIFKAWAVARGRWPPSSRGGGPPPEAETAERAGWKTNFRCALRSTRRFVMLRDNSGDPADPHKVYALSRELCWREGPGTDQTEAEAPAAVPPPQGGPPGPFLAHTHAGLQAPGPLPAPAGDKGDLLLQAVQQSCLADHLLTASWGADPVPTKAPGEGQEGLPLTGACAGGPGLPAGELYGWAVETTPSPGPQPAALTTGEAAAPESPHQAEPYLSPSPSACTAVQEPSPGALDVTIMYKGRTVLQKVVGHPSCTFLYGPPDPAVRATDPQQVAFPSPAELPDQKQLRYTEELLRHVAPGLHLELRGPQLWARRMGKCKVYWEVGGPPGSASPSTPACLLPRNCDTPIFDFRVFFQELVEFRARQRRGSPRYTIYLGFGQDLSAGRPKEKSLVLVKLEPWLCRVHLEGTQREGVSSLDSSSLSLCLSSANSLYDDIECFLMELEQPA
Technique: protein-binding microarray
Form: double-stranded DNA, one strand shown
Sample: in vitro
Concentration: 250 nM
Notes: 60-bp whole probe
Added: salmon DNA 0.4 mg/ml
Reference: random background probes
Reading: higher = stronger binding
Shared flanks, not repeated: GCCTAGCAC … GTCTTGATTCGCTTGACGCTGCTG
Oligonucleotide | log fluorescence
TACGGTTTCGGTTTCGGGACGTGCTAG | 15 z-score
TTAGGACTGCTTCTCCTGTAGTGCTAG | 0.547 z-score
TCACCTCTCAACCATCCTACTGTGCTA | 0.284 z-score
TTCGGTCTCGGTTTCGGTTAGTGCTAG | 11 z-score
TTAGGTATCGACACTTGGTTAGTGCTA | 0.38 z-score
GACGGTTTCCAACTGCTGACGTGCTAG | 1.66 z-score
TTAGGTTTCCTTATCCTCTAGTGCTAG | 2.97 z-score
GACGAACTTGGGTTTCGAGACGTGCTA | 2.58 z-score
GACGATATCAGACTGGAGTCGTGCTAG | -0.289 z-score
GTAGGTTTCGGACTGGGTTAGTGCTAG | 3.35 z-score
TTACGTTTCGGTCTCGGTTAGTGCTAG | 4.76 z-score
GACGATTTCGGGTTTCTAGACGTGCTA | 1.95 z-score
TCAGGACTCAGGTCTCCCACTGTGCTA | -0.0892 z-score
TTCTATATTTGCTTCAGGTTGTGCTAG | 0.429 z-score
TTAGATATCATTTTCGATTAGTGCTAG | 2.83 z-score
TCAACCATCTAGTTCTGACTGTGCTAG | -0.465 z-score
TCAATTTTCATTATTGCACTGTGCTAG | 0.822 z-score
TCAACTTCTCTTTTTGCACTGTGCTAG | 0.727 z-score
GACGGTTTCCTTTTCCTGAAGTGCTAG | 7.24 z-score
TTAGGACTGGGGACTGGTTTAGTGCTA | 0.0192 z-score
TTAGGACTGGGTCTCCGTTAGTGCTAG | -0.165 z-score

Series 4
Target: Histone acetyltransferase KAT6A, both winged helices, GST fusion (KAT6A, Homo sapiens, UniProt Q92794, residues 1-181)
Technique: protein binding microarray
Form: double-stranded DNA, one strand shown
Sample: in vitro
Concentration: not given
Notes: 8-mer, flanks averaged, mean of 2 arrays, mostly near background
Reference: not given
Reading: higher = stronger binding
Target sequence (chain): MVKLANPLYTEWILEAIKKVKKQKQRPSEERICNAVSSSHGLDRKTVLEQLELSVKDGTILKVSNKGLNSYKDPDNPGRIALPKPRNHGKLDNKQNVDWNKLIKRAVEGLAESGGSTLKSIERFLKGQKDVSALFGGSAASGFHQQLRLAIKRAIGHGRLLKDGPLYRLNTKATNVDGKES
Oligonucleotide | E-score
ACGTTCGC | 0.137
TATCCGCA | 0.134
GGGCTCCA | -0.139
CCCGTGCG | 0.311
ATGCGGTC | 0.122
AGGCGGTC | 0.136
ACGACTGA | -0.196
ACGGGGGG | 0.0438
ATGGAGGC | -0.0685
ACGAGAGT | -0.174
CGTTACAC | 0.141
CGCAGTCC | 0.143
GATCATGA | 0.00651
GGAGTCTA | -0.152
GGGGACGA | 0.0344
ACATACGC | 0.209
CAGCTTGA | -0.0699
ACGCGAAG | 0.157
AATAGCCA | -0.234
GAACACAA | -0.205

Series 5
Target: Phosphate system positive regulatory protein PHO4, full length, GST-tagged (PHO4, Saccharomyces cerevisiae, UniProt P07270, residues 1-312)
Technique: competition protein-binding microarray
Form: double-stranded DNA, one strand shown
Sample: in vitro
Concentration: 2 µM
Notes: whole 60-bp probe, lowest competitor level
Added: Cbf1 competitor, 0.05 µM
Reading: higher = stronger binding
Shared flanks, not repeated: … GTCTTGATTCGCTTGACGCTGCTG
Target sequence (chain): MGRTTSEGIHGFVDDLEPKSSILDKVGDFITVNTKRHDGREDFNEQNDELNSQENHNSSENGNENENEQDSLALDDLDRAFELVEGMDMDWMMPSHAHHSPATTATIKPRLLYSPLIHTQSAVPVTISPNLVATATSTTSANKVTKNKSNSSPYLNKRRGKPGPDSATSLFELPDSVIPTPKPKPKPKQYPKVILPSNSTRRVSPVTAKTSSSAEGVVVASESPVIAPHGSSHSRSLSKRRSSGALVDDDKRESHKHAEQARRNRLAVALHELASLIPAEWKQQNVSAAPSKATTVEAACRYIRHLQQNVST
Oligonucleotide | fluorescence intensity [a.u.]
AAATTACTAAGTTGGGAGGTGGGTGACGCCGTATGA | 4510
GGATTACTGTAATTGCTCGTGTTGGATTGAGCGAAA | 7920
CTTTCCCGATCTTGCCATGTGGGTGTAGCACATTTG | 11400
CGGGGTTAAGTTTGTGTAGTGGGTGGCTTGCAGCAG | 5010
TTCATCGAATGCTTGCGCATGCCAATGCACAGACAA | 8170
CTTCTGTAAATTTGGTGAGTGGGTGGACGCGCCCCG | 4370
GCAAAGAAATAGGATCGCGTGGAACTGGATCGTACA | 5840
AAATTACTAAGTTGCCTGGTGGGTGACGCCGTATGA | 4140
TTTACTTAGAACGACCACGTTACGATCTTTAGTTCC | 9530
GGTGTTGGAACTACCCACGTGGTGATTCTGGTATTT | 19700
TTGGGCTGGTGCGATTTCGTGGGTAGTATTCAGGAC | 5430
CTAACGAAGGTTTGTCACAAGACTTACAAGCCAAGT | 3650
GTCTGAAGTAAAAAGCACGATGATCGTAGTCCACTT | 8250
CTATGCAAGTTATGCCAGGTGACAGTGTTGAAATGG | 6370
AAAGCGGTAATTTCGCACGTGTTTTCACATATCTAT | 18900
CATACCCAACCTTGAGGTGTGGGTGAAGATATTTGT | 6170
CGTCCTAGTGATTGCGGTGTGGGTGCCATGAGGAAG | 7690
GGAAATCGAACATTTCACGTTCTGCAGAATTTAAAG | 8790
CGTCCTAGTGATTGGAGGGTGGGTGCCATGAGGAAG | 7460
CCGACCTTAGAATTTCACGTGTAGGTACACTCAAAA | 10300
TGCGCAACAACTTGTCACACAACTTTATGTCTAGAA | 3550
AAATTACTAAGTTGTCACTGGACTTACCCCGTATGA | 3340
TCCTCCCAGACGGGAAACGTGTCGGTCGCTTCTGTT | 11800
CCAGATCCGGATCCAAACATGACAATCGAAGATTAT | 3280
TAGAACCAGTATCCACACGTGGTGACAAAAACTCGA | 16400

Repeated from above (series 3):
Oligonucleotide | log fluorescence
TACGGTTTCGGTTTCGGGACGTGCTAG | 15 z-score
TTAGGACTGCTTCTCCTGTAGTGCTAG | 0.547 z-score
TCACCTCTCAACCATCCTACTGTGCTA | 0.284 z-score
TTCGGTCTCGGTTTCGGTTAGTGCTAG | 11 z-score
TTAGGTATCGACACTTGGTTAGTGCTA | 0.38 z-score
GACGGTTTCCAACTGCTGACGTGCTAG | 1.66 z-score
TTAGGTTTCCTTATCCTCTAGTGCTAG | 2.97 z-score
GACGAACTTGGGTTTCGAGACGTGCTA | 2.58 z-score
GACGATATCAGACTGGAGTCGTGCTAG | -0.289 z-score
GTAGGTTTCGGACTGGGTTAGTGCTAG | 3.35 z-score
TTACGTTTCGGTCTCGGTTAGTGCTAG | 4.76 z-score
GACGATTTCGGGTTTCTAGACGTGCTA | 1.95 z-score
TCAGGACTCAGGTCTCCCACTGTGCTA | -0.0892 z-score
TTCTATATTTGCTTCAGGTTGTGCTAG | 0.429 z-score
